Published values gathered from unrelated publications.
Every numbered part comes from another study and shows a few of its results, in no order. Positions count from the first letter of the parent shown.

Block 1
Target: RNA binding protein fox-1 homolog 2, RRM domain, GST-SBP tag (RBFOX2, Homo sapiens, UniProt O43251-10, residues 100-194)
Technique: RNA Bind-n-Seq
Molecule type: RNA
Matrix: in vitro
Tested at: 365 nM
Setting: natural RNA segment, single round, ends assumed
Relative to: no-protein control
Direction: higher = stronger binding
All sequences stand within: GGGAGUUCUACAGUCCGACGAUC … UGGAAUUCUCGGGUGCCAA
Construct (chain): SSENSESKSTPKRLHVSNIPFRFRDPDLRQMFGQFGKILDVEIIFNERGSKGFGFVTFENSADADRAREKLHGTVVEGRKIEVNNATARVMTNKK
| Strand | RBNS enrichment (R) |
| --- | --- |
| UUUUGUGACUUUGUGUGGUUCGAAUUUCUCAGUAUUUUAACCAGUGUGUUGAUGUUAAAGUCAAAGGCUGCAGUAUGUCUAUAUUCUUGCUGUACUCAUUGGUAGUUUCA | 0.804 |
| AAAAAUAUAAGAACUUGAUAUAUUUCAUUCUCUUAUAUAGUAUUCAUUUUCCUACCUAUAUUACACAAAAAAGUAUAGAAAAGAUUUAAGUAAUUUUGCCAUCCUAGGCU | 0.481 |
| GAACAGCACGUGGUGGGGUCCUGCUUGUGUGCUCUGCGUUCCUCUGUGGCGUGGCCAGGCCGGGGCAUGGCUCUUACCCGGGGAGUGGUGGGCAUCUCGAUGCUUCUUUG | 8.35 |
| CUUGUUUGAAACAAUGCUUGACAAUUCAGAAAUUAACCACUGAUGUGCUGUGGAAUGUGAUGCUUGUCCUCAUAUAGUCUCAGUUUCUCUUUUUAUGCAGAUAUUUGUGA | 0.781 |
| CCUGCUCUGAAAAUAGGUGCCCAGCACCCCACCGCUGCCUGCACAUGCUUCUUAGCGCUGACUUCCAGGAGCAAGAGUGAAGAGGCAGCACGUAGAACUCCCUGCAUAAG | 0.856 |
| UGGCCUGUACCAUAUUAUGGAGAACUGUUAACUGCUUAAUUGGGUAAUUUUCAAAGAAAGUGAUGUUUGUUAAAUGGGGCGAAAUAAGAAGUUAAAUUUGAAAGUGAAUG | 0.937 |
| AGAAUCCCAUCCUGCACACAUUGGUUGGUGCCCUGGGUGGAAUAGCAACGACACCAACUGAUAAAAGCACAAGAGAAGUGGGGAACAUCUUGAGUCCUGUUGGACGUGAU | 1.08 |
| UUAAUUUCCAUUUUAAGGUGGUGUCUGUGCAGCCGUGUCCCUGGUUCUGGCUGUUUUCUGUCUGGUGGAGAAGCCUGCUUGUCAAAGCUGACCUCUUAGAGCCGCACAGA | 0.228 |
| CUUGGGAUCAGUGGAAAGAAUGAUUGCUAUCCUCACAGAAAACUAUGGGGGCAAAUGGCCCUUUUGGCUGUCCCCUCGCCAGGUAAUGGUAGUUCCAGUGGGACCAACCU | 0.278 |
| AUGGGAGCUUACUGGGUUAGAAGUCAGGACACUGAGUUUCAAUCCUCACUUAGUAGUCUGUGGCCCUCUUUGGCACAUUAACCUCCCUCCUUGAUCCUCAGGCUGCACCU | 0.272 |
| CCAGGGUCAUCACAUGUCAAAGCAAUAUUGGGGAUUGCUAGGCUUCUUUCAACUUACUUUUCACAGUAGGUUUCAGGGGAACAAAGCCAUGCCUGCUGCCUGCCUCUCUC | 0.849 |
| CCACUAUUCAAACUUCCAAGGAGUCCCACUCUCAGGGGGCGGGGCACAGAGCUAAAAUCUCCAAAAGAACUGGGUGUGAACUCACAUGGUGGCUAGGAAGGCAGAGCGCC | 0.384 |

Block 2
Target: Sal-like protein 4, full length isoform B (SALL4, Homo sapiens, UniProt Q9UJQ4-2, residues 1-616)
Technique: universal PBM
Molecule type: double-stranded DNA, one strand shown
Matrix: in vitro
Tested at: not given
Setting: 8-mer, flanks averaged, mean of replicates
Direction: higher = stronger binding
| Strand | E-score |
| --- | --- |
| AGAGGGCC | -0.237 |
| AACTTCCG | -0.0142 |
| CCGTAAAG | -0.0364 |
| CGTACACG | 0.0386 |
| CTCGAGCA | -0.027 |
| CCATTTAA | 0.189 |
| CGCACATC | -0.0849 |
| AGTGAGCA | -0.0578 |
| ACAAGAGA | -0.0709 |
| ATGCCCAC | -0.0429 |
| GGCCCCAC | -0.26 |
| AGTAGCAT | 0.0626 |
| CTTGATAA | 0.219 |
| GATAGCGA | 0.0416 |
| AAAGCTGT | 0.119 |
| ACTAGAGA | 0.0835 |
| TAAACGGA | 0.149 |
| AGAGTCAG | -0.203 |
| ACTATGTG | 0.178 |
| ATCAATCC | 0.0534 |

Block 3
Target: PABPC1L2, full length, GST fusion (mouse, UniProt A0ABA7IW68)
Technique: RNAcompete
Molecule type: RNA
Matrix: in vitro
Tested at: 20 nM
Setting: 7-mer, probes averaged, single round
Relative to: mean of 7-mers
Direction: higher = stronger binding
Residues (chain): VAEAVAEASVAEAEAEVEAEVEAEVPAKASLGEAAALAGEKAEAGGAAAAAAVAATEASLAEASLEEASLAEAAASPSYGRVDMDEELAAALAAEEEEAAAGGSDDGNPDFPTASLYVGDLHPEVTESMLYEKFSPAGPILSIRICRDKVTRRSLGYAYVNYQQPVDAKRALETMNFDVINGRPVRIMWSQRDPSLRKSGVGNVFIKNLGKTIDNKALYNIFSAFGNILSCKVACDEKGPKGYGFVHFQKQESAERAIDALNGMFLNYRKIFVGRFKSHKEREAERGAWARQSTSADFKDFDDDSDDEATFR
| Strand | 7-mer Z-score |
| --- | --- |
| GCCUUAU | -0.277 |
| AUUAACG | -0.0156 |
| CAUUUUU | -0.168 |
| GACGACC | -0.103 |
| CUCAUAU | -0.287 |
| AGAACUA | -0.021 |
| UCUGGUU | -0.267 |
| GCUUCAU | -0.315 |
| GUCUCAG | -0.277 |
| CAGGACG | -0.0283 |
| CAUGGGA | 0.138 |
| AAGCCGU | -0.0518 |
| UCCGGCG | -0.195 |
| AUGACUC | -0.0718 |
| CCCAAAC | 0.0497 |
| UUGGGCC | -0.318 |
| AUGUACG | -0.0464 |
| AUGUUUC | -0.421 |
| CGGGCUA | 0.198 |
| UAAUUGG | -0.00108 |
| CUGUUGU | -0.374 |
| UAUCCCG | -0.358 |
| UGUAAUG | -0.222 |
| GGGAUGG | 0.535 |
| CAUUUAA | 0.407 |

Block 4
Target: ABI1, truncated, D143A, DHFR fusion (Arabidopsis thaliana)
Technique: DHFR PCA, deep sequencing
Matrix: yeast
Setting: methotrexate growth selection, single substitutions
With: (+)-ABA 4.8 µM
Relative to: wild-type fitted maximum
Direction: higher = stronger binding
Starting sequence: PYL1, truncated, DHFR fusion (Arabidopsis thaliana); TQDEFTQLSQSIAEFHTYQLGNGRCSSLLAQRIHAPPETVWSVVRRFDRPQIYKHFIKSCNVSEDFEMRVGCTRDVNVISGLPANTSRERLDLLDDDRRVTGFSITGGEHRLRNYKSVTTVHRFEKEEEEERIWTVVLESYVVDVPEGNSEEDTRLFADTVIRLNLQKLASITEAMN
| Variant | relative binding score [%] |
| --- | --- |
| L91T | -2.72 |
| V137P | 7.09 |
| A13P | -4.8 |
| I57C | 6.25 |
| T154L | 0.0154 |
| P50R | 5.5 |
| Y53M | 5.06 |
| S140K | -6.12 |
| D48M | -31 |
| D159V | -3.84 |
| E127V | 76.6 |
| S11P | 74.9 |
| W41F | -25 |
| F124S | 48.2 |
| V44C | 23.7 |
| F157V | 16.6 |
| D153K | 2.62 |
| D75P | 14.7 |

Block 5
Target: Interferon regulatory factor 7, full length, phosphomimetic (IRF7, Homo sapiens, UniProt Q92985, residues 1-503, S471D/S472D/S475D/S476D/S477D/S483D/S484D/S487D)
Technique: protein-binding microarray
Molecule type: double-stranded DNA, one strand shown
Matrix: in vitro
Tested at: 2200 nM top
Setting: 60-bp whole probe
With: salmon DNA 0.4 mg/ml
Relative to: random background probes
Direction: higher = stronger binding
All sequences stand within: GCCTAGCAC … GTCTTGATTCGCTTGACGCTGCTG
Target sequence (chain): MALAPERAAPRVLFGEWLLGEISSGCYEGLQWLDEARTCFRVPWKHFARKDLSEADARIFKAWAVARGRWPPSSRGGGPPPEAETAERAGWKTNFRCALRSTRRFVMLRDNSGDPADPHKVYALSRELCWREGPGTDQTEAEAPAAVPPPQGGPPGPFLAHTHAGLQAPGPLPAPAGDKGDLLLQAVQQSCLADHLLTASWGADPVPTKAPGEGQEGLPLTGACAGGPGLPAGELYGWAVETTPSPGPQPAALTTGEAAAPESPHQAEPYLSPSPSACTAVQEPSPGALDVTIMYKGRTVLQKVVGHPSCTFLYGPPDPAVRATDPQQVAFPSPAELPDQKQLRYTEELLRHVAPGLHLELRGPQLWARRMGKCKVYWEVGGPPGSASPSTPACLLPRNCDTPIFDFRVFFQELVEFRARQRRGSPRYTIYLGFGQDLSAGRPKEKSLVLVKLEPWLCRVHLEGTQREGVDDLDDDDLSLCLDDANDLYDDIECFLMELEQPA
| Strand | fitted relative affinity [z-score] |
| --- | --- |
| GACGGACTGGACACTGGGCACGTGCTA | -0.897 |
| GACGGTTTCATTTCCCTGACGTGCTAG | 5.1 |
| TTAGGTCTCCTACAGCTTTAGTGCTAG | 0.165 |
| GACGGTCTCCTTCTCCTGAAGTGCTAG | 0.766 |
| GACGATATCGGTATCGAGACGTGCTAG | 0.382 |
| AAGCTTCTTTTTTATTCTAAAGTGCTA | 0.0925 |
| TCGTTATCCTATATCTGAACGTGCTAG | 3.11 |
| GACGGGTTCCTTTTCCTGACGTGCTAG | 1.65 |
| TGAGATATCAGTCTCGATTAGTGCTAG | -0.055 |
| GATGGACTGCTACTGCTGACGTGCTAG | 0.0891 |
| GACGGACTCGGTATCGGGACGTGCTAG | -0.0449 |
| TCAAGTCCCAAGAATGGTACTGTGCTA | -0.0149 |
| GACGGTATCCTTTTCCTTACGTGCTAG | 1.63 |
| GACGAACTGGGGTATGGAGACGTGCTA | 0.115 |
| GACGATATCAGTATCGGGACGTGCTAG | 0.294 |
| GACGGTATCGTCTTTCGGGACGTGCTA | 1.54 |
| TAAATTCTGAAAATGGAAACGTGCTAG | -0.557 |

Block 6
Target: Histone acetyltransferase KAT6A, winged helix 2, GST fusion (KAT6A, Homo sapiens, UniProt Q92794, residues 85-181)
Technique: protein binding microarray
Molecule type: double-stranded DNA, one strand shown
Matrix: in vitro
Tested at: not given
Setting: 8-mer, flanks averaged, mean of 2 arrays, mostly near background
Relative to: not given
Direction: higher = stronger binding
Residues (chain): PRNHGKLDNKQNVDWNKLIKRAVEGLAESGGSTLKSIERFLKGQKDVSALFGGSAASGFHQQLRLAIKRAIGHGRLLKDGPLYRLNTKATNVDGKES
| Strand | E-score |
| --- | --- |
| AGACCGGG | 0.0809 |
| CTGTATTC | -0.0417 |
| AACACGAT | 0.0617 |
| AAAATCCT | 0.0523 |
| GACATTTA | -0.194 |
| CTGACGAC | 0.0174 |
| ACAACAGC | -0.0789 |
| CATTATAG | -0.0621 |
| CTGAGAAG | 0.0813 |
| AGTTAGGG | -0.0478 |
| CTTCGTAC | 0.0841 |
| ACCCTGGC | 0.00073 |
| ATGCCAGA | 0.0471 |
| TGAGCGCA | -0.0182 |
| TGGCTCAA | -0.112 |
| GTAGTCAC | -0.0918 |
| GTATGCGA | 0.134 |
| AATCAGCT | 0.0404 |
| ATAGCCGG | 0.15 |
| TATCGTCA | -0.000525 |

Excerpt of the above (block 6):
| Strand | E-score |
| --- | --- |
| AGTTAGGG | -0.0478 |
| CTTCGTAC | 0.0841 |
| ACCCTGGC | 0.00073 |
| ATGCCAGA | 0.0471 |
| TGAGCGCA | -0.0182 |
| TGGCTCAA | -0.112 |
| GTAGTCAC | -0.0918 |
| GTATGCGA | 0.134 |
| AATCAGCT | 0.0404 |
| ATAGCCGG | 0.15 |
